Experimental data from different studies.
Each numbered part is a random draw from the data of one study; scales do not carry over between parts. Positions count from the first letter of the parent shown.

Series 1
Target: CCND2, cyclin fold, Cln2 fusion (human)
Technique: yeast growth competition, sequencing
Matrix: yeast
Notes: weak parent motif
Baseline: not given
Direction: higher = stronger binding
Parent: BRCA2 docking peptide (human); PSIKRNLLNEFDR; partner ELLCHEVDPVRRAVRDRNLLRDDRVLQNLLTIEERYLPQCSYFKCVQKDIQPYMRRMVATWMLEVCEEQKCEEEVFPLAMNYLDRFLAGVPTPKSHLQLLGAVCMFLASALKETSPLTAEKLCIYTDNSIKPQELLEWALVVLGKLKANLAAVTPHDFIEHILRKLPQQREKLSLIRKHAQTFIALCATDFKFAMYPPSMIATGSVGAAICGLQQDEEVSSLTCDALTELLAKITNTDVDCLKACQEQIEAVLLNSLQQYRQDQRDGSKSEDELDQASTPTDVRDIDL
Change | normalised enrichment score
PSIKQNLLNEFDR [R5Q] | -0.00779
PSIPRNLLNEFDR [K4P] | 0.00873
PSIKRNLKNEFDR [L8K] | 0.482
PSYKRNLLNEFDR [I3Y] | 0.36
PSIQRNLLNEFDR [K4Q] | -0.165
PSIKRNNLNEFDR [L7N] | -0.782
PSIKRNLLCEFDR [N9C] | 0.187
PSNKRNLLNEFDR [I3N] | -0.0422
PFIKRNLLNEFDR [S2F] | 0.223
PSIKRNLLNECDR [F11C] | -0.189
PSIKDNLLNEFDR [R5D] | 0.0401
PSIKRNWLNEFDR [L7W] | -0.132
PSIKRNLLNEFTR [D12T] | 0.248
PSIKRNLLNEFFR [D12F] | 0.411
PSIKRPLLNEFDR [N6P] | 0.608
PSIKENLLNEFDR [R5E] | 0.427
PSIKRNLLNEFDF [R13F] | -0.278
PSIKRNLLNEFDM [R13M] | 0.197
PSIKRNLLEEFDR [N9E] | -0.0331
PRIKRNLLNEFDR [S2R] | -0.102
PSIKRNLLNEYDR [F11Y] | 0.251
PSIKINLLNEFDR [R5I] | 0.0883
PSIKRTLLNEFDR [N6T] | -0.13
PSIKRNLLREFDR [N9R] | 0.144

Series 2
Target: Ras GTPase-activating protein-binding protein 1, RRM domain (G3BP1, Homo sapiens, UniProt Q13283)
Chain of UniProt Q13283 (whole entry, looked up): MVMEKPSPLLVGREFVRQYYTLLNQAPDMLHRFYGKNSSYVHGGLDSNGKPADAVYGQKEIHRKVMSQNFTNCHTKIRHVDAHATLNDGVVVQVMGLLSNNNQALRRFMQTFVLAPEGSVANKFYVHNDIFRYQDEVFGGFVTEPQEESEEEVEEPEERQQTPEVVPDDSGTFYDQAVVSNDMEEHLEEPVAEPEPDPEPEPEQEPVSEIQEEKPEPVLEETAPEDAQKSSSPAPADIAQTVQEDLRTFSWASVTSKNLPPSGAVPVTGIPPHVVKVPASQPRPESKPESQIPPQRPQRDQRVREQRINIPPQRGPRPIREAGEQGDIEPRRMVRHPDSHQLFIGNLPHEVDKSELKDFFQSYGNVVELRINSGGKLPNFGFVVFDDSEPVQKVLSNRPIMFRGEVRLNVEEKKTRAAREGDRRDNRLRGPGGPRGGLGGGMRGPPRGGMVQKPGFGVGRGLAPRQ
Technique: RNA Bind-n-Seq
Form: RNA
Matrix: in vitro
Concentration: 1 µM
Notes: whole 134-nt RNA, ends assumed
With: 150 mM KCl
Baseline: input library
Direction: higher = stronger binding
Constant ends, left off below: GGGAGUUCUACAGUCCGACGAUC … UGGAAUUCUCGGGUGUCAAGG
Strand | log2 enrichment
UGGCCAUGGUGGCAUGCGGGGAGGAAGAGGUGGCCUCAUGGAUCGUGGUGGUCCCGGUGGAAUGUUCAGAGGUGGCCGUGGUGGAGACAG | 0.616
UCCCCAGGGCCUGGCCUACUCAAUCUCUCCCACCUCAUCCUCUGGCAUGGACGCAGUCAGGGAGUCUGCUCCAAGCAGACACUGGUGGUC | -0.253
UAGCCCUGGUGGCAUGCGGGGAGGAAGAGGUGGCCUCAUGGAUCGUGGUGGUCCCGGUGGAAUGUUCAGAGGUGGCCGUGGUGGAGACAG | 0.735
AGUCCUGUGCUACACAUCGUAUGUACCGAAUCGGGGUGGGGAAAGGGGUUUUUGGGGAAAGUAUUAUGUUACGCCGUUCGGAUCUGCACU | 1.17
CCUCAAGUCCUGUGCUACACAUCGUAUGUACCGAAUCGGAGGGGAGGGGAGGGAAAGUAUUAUGUUACGCCGUUCGGAUCUGCACUUCCA | 0.335
UAACUUUAGAGGAGGAUGUGAUGGAUAUGGCAGUGGACGUGGAUUUGGGGAUGGCUAUAAUGGGUAUGGAGGAGGACCUGGAGGUGGCAA | -0.738
AGUCCUGUGCUACACAUCGUAUGUACCGAAUCGGGCCCCCGGCCCCCGGCCCCCGGGAAAGUAUUAUGUUACGCCGUUCGGAUCUGCACU | -0.61
UUCUGGUCUGCUCACCAGAGGUUCUUCAAAUACUUAUGCAUAGCAUCCAAAGUUAAAAGGGUUGUGCAACUAGCUCGAGAGGAAAUCAAG | -0.287
CAAGUCCUGUGCUACACAUCGUAUGUACCGAAUCGGAAAAAAAGGAGGUUUUUGGAAAGUAUUAUGUUACGCCGUUCGGAUCUGCACUUC | -0.107
GCAGGAAGUAAAAACAAAUGGAAAUGCUUCGGAUAGUGGCAGGGGUGGGGGUUGCUACGGAAAGGGUGGGAUGGGAGUGGGUAAAGAGUU | 1.64
ACCAUGCAGGUGGGCAUCUUUGGGAAGUGGGGCAAGGGGGGGAUAGGGAGGGGGGUAACACUUAGGGAACAGGUGGUCCCAGGUCGUUUC | 0.974
UGUGCUACACAUCGUAUGUACCGAAUCGGGCCCCCCCGGGGCCCCCCCGGGCCCCCCCGGGGAAAGUAUUAUGUUACGCCGUUCGGAUCU | -0.62
CUCAAGUCCUGUGCUACACAUCGUAUGUACCGAAUCGGUGGUUUUUGGAAAGGAAAGUAUUAUGUUACGCCGUUCGGAUCUGCACUUCCA | -0.211
UCCUCAAGUCCUGUGCUACACAUCGUAUGUACCGAAUCGGAGGAGGGAGGGAAAGUAUUAUGUUACGCCGUUCGGAUCUGCACUUCCAGC | -0.285

Series 3
Target: RING finger protein unkempt homolog, zinc fingers 1-6, GST-SBP tag (UNK, Homo sapiens, UniProt Q9C0B0, residues 30-357)
Chain of UniProt Q9C0B0 (30-357, looked up): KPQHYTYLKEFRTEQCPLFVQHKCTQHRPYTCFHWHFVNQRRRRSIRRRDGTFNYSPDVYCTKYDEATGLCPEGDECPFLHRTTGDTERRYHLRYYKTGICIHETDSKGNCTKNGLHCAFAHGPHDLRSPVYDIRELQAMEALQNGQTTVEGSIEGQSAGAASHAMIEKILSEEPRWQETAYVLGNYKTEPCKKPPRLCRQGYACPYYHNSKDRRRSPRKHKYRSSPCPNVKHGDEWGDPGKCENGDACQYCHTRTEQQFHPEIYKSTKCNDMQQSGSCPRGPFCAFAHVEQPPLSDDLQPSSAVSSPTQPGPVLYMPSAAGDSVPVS
Technique: RNA Bind-n-Seq
Form: RNA
Matrix: in vitro
Concentration: not given
Notes: RNA with constant flanks, human and mouse sites, ends assumed
Baseline: input RNA pool
Direction: higher = stronger binding
Constant ends, left off below: GGGAGUUCUACAGUCCGACGAUC … CAACAGAGGAUUGAGCAUCA
Strand | bound/input enrichment [ratio]
GUGUUCUGUUUUAUUUUGUUUUUUCACUUAUUCCUCAUAACAGUUUGUGAAACCGGUAUGUUAGCCCUUUUAUGAAUUGGCCAGAGAGGAUGAGUGGUCGGCCUAGGUCAUAUGUCUAGG | 0.456
GGGCAGGCUACUUUUUGGAGCAUCUGGCUUUCAAGGGAACAAAGAAUCGGCCUGGCAGUGCCCUGGAGAAGGAGGUGGAGAGCAUGGGGGCCCAUCUUAAUGCCUACAGCACCCGGGAGC | 0.2
GCAGUCCGCAGAACGGAAACUGGACGCAUUGGAUUAGAAGGCUGCCUUUGUCAAGAUUUUUAUAGGAUAAGAGACCUUUUAUAUGAACAAUAUGCCAUUGUAUAAAGGACAUGAUGUCAA | 0.923
CUUGACGAUGAUGAAUGUCCUUUACAAAUCUUCAGGGAAUGGCCAAGUGACAAAGGGAUUUUAGUCUUUCAGUUGAAGAGGAGACCACCGGACUACAUCCCAAAGAAAAUGAAGAAACAU | 0.164
CCUCGAGAACGGGACUAUUUAAAAACAGUCUUGCACAGGAUUUAUGGCAAGUUUCUCGGGCUUAGAGCAUUUAUCCGAAAACAAAUUAACAAUAUUUUUCUAAGGUUUGUUUAUGAAACA | 1.4
GAUAAGUUUGAAAAACUUGUGCAGACUGUGAGAGAUUAUCAUGCAACUUGGAAAACUGUUAGUAAUAAAUUAAAAAAUCAUCCUGAUUAUGAAGAAUACAUCAACUUAGAGGGAACAAGA | 14
ACCCACACUGAUGAGGACCCCCAGAUGUCAAUGGUUGAAGACUGUCAUGCUUCAGAGCAUAAUAGCCCGAUAUCCUCCAUUCCGUCUCAUCCUAGCCAGUCAGUCCGCUCUGUCAACAGC | 0.237
GUGCUGCAGCAGCUCCCAGCCCCGUGCUAGGAAACAUGCCCCCAGGAGAUGGCAUGCCAGUAGGUCCCGUGCCACCAGGGUUCUUUCAGCCUUUUAUGUCGCCUCGGUACCCUGGCGGCC | 0.261
GAAGUUUGUAUCAAUCCAUACCACUAUAAGAGAGUGGAGAGUCCAGUCUUACCUCCAGUAUUAGUGCCUCGUCACAAUGAAUUCAAUCCACAACACAGCCUUCUGGUUCAGUUCAGGAAC | 0.203
GAUCGUCAAUCGAUGUAGGAGGGCAGUGGUCUUGGGUUGAGUCAGAAAGCCUGGGAGGAAACUAGAGAGGAAGCCAGCCAGGACGUGACACUCCUUCAUGGUGUCUGCUUCAGCUCCUAC | 0.111
AAUGCAGAACAAAUGAAAGCCUUUUGGAAAUUGUCUAGUAUUUCAGAAAAAUCAGAAAAUGGAGGUUCUGGGUCCCUCCGAGCAAAAUUUGAUCUUUCAGAAGGACCUAGUAAACCCACG | 0.468

Series 4
Target: RNA binding protein fox-1 homolog 2, RRM domain, GST-SBP tag (RBFOX2, Homo sapiens, UniProt O43251-10, residues 100-194)
Technique: RNA Bind-n-Seq
Form: RNA
Matrix: in vitro
Concentration: 365 nM
Notes: natural RNA segment, single round, ends assumed
Baseline: no-protein control
Direction: higher = stronger binding
Constant ends, left off below: GGGAGUUCUACAGUCCGACGAUC … UGGAAUUCUCGGGUGCCAA
Target sequence (chain): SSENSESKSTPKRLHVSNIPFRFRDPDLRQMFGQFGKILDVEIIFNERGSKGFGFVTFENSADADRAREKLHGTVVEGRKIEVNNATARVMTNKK
Strand | RBNS enrichment (R)
AAUUCUAAAUAUUUGAUUAAUUUUAAUUCUGAAAGAAAAUUUUGAGGAUUUAAGCUUAGGGGAUUUUAUUUUUAUAAAUACCAGAUUAUUGUUAGACUUAAUAAAUCACU | 0.551
AAACAGAACAGAACAGCCUUUGCACUAAAUUAGUGACUCGCGCAGUGAACACAGGCUGCGAUGCUCUGGACAUGUGUGCAUGAGCACGCCGUGGACUCUCGUGCAGGACU | 0.567
AAUACAGGGUUUUGAAAACAUGAAGGAAAUGAGAGUUUCCCCCCAUUCCUGAUUUAGCUAUUAUUUCUUUGUCUGAAGUCUGCCAUACUCACUUUGGGCCAGAGAGAGGU | 0.344
CUUGAUCCUGUAGUUGGUUUUGACCUGGUGUGGUCCCUCCAUGCUGUGGAAGUGAAAUGUGAGGGAACAGGCCUGGGGGCAGUGAGGGAGACAGGACAAGCCUUUCAUCU | 0.575
AACCUUCGGUCAGGGAUGUCGUUGGGGAAGUGACUUCAAAAGUAUUCAAAAUUUGACAUGCUGUUUGUUUAGUCACUACAGUGCCCUCAAAGGGCAGACAUUGCAGCCUU | 0.327
ACACCAGCUACCAAUUUUAGAAUAUUAUUUCUUGGUUUCUUUAUGAAAAAUGGGUGCUAGUGGUAAUUGCUUUGUGGCUUAGUAAACUACUCUGUGGAUGAUUUCCAAAC | 0.712
AUCUCACUUGCUUGAAACAGGAGCCAGCAUGAUCUCUGGAAGCAUCAACUAUCCCUCGUCGUGAUUGUUGAAAGCUCUUUCACUGUUUUGCAUUCUAGUUUGAAUAGUUU | 4.94
UCCACCCUUGGCCUGUCUCAUCCCCAGGGGUCCCAGCCACCCCGGGCUCUCUGCUGUACAUAUUUGAGACUAGUUUUUAUUCCUUGUGAAGAUGAUAUACUAUUUUUGUU | 0.273
GAGGUCUCCUGAGGACCUGGGCCUGUUCUGCUCCUAGGAGACCUGAGCCCGUUACCGCGUGACUCCCACCAUCCAGCUCGCGCUCCUCGUGGAUUCAGCCAUGCAUGGAC | 0.705
UGUAUUGUUAUUGGCUGUAAACGUCUGUCUGGACCGAAUAAAGAUUCAUUCACGUGGCCUCUGCUCCUGUGUGGUCUGAGCAGGCUUCAUCUCUGUUUCUCUCAAGGCGU | 0.756
AGGCUGGACCACACGCUAACCUCCUGAGUGGUUCAGCUGCGUCUGGUCUGGUCAGGGUCCUGCUGCUUCCGUAACCUGGGUUUGCCUGUCCACCCCUGGCCUCUUCCGUA | 0.688
CAGCUGCCCAAUAUUAACAGUUUUAGUUGGUCUCUAUCUCAAAUAACAGUGUAGGUAUUGGAACCCUUGUAGCCCUUUUGGGGGUCAAACAGGUAUAUGGAUUUAUCAAG | 0.223
